Results collected from several papers.
± marks the error that the study gave.

SMILES | target | test | system | conditions | scale | quantity | value
CC(=O)NCCN(CCC(=O)NCCN(CCC(=O)NCCN(CCC(=O)NCCC(N)=O)C(=O)[C@@H](N)CCCCN)C(=O)[C@@H](N)Cc1ccccc1)C(=O)[C@@H](N)Cc1ccccc1 | HIV-1 TAR RNA | – | – | 25 °C | – | binding free energy ΔG° | -8.75 ± 0.287 kcal/mol
NCCCC[C@H](NC(=O)[C@H](C/C=C\C[C@H](NC(=O)[C@@H]1CCCN1)C(=O)N[C@@H](CCCCN)C(=O)NCCCN)NC(=O)[C@@H]1CCCN1)C(=O)NCCCN | HIV-1 frameshift site RNA | SPR | – | – | – | residence time | 27 s
C#CCCCC(O)/C=C/C(=O)NC1(c2ccc(-c3nc4ccn5c(=O)[nH]nc5c4cc3-c3ccccc3)cc2)CCC1 (centres unmarked) | AKT3 (Homo sapiens, UniProt Q9Y243) | covalent, in-gel fluorescence click | HEK-293T expressing Halo-AKT3 | – | relative to: AKT3 over Akt2 | labelling efficiency ratio | 3.3 fold
O=C(c1cc2c(s1)CCCCC2)N1CCC(n2c(=O)[nH]c3ccccc32)CC1 | Trpc6 (Mus musculus, UniProt Q61143, Y704W) | ion current, agonist, whole-cell patch clamp | – | 100 µM, Y704W mutant | – | maximal current density | 6.88 ± 2.31 pA/pF
C=C1CN(S(=O)(=O)c2ccc(C)cc2)CCCN(Cc2ccccc2)CCCN(S(=O)(=O)c2ccc(C)cc2)C1 | Inactive tyrosine-protein kinase 7 (PTK7, Homo sapiens, UniProt Q13308) | SILAC mass spectrometry | SUP-T1, crude membrane fraction | 10 µM, 17 h, forward labelling | relative to: DMSO over compound | protein level ratio | 2.39
CC[C@H](C)[C@H](NC(=O)[C@H](CCC(=O)O)NC(=O)[C@H](CC(=O)O)NC(=O)c1ccc2c(c1)C(=O)OC21c2ccc(O)cc2Oc2cc(O)ccc21)C(=O)N[C@H](C(=O)N[C@@H](CC(N)=O)C(=O)N[C@@H](CCCCN)C(=O)N[C@H](C(=O)N[C@@H](CC(C)C)C(N)=O)C(C)C)C(C)C | yeast Vps4p GP-linker mutant | fluorescence polarization | – | concentration not given | relative to: wild-type Vps4p | binding change | no effect
CC(=O)NCCN(CCC(=O)NCCN(CCC(=O)NCCN(CCC(=O)NCCC(N)=O)C(=O)[C@@H](N)CCCNC(=N)N)C(=O)[C@@H](N)CCCNC(=N)N)C(=O)[C@@H](N)Cc1ccccc1 | HIV-1 TAR RNA | – | – | concentration not given | – | heat capacity change ΔCp | -2.79 ± 0.34 kJ/mol/K
CNc1ccccc1C(=O)O[C@H]1C[C@H](n2cnc3c(N)ncnc32)O[C@@H]1COP(=O)(O)OP(=O)(O)O | Unconventional myosin-Va (Gallus gallus, UniProt Q02440, D297C/G292C/I296C/S293C/V295G) | stopped-flow FRET, linear fit intercept | – | 15 °C, with: MgCl2 10 mM | – | dissociation rate constant | 3.84 ± 0.41 s⁻¹
COc1cc(/C=C2/SC(=S)N(CC(=O)Nc3ccccn3)C2=O)cc(OC)c1OC | CD38 (Homo sapiens, UniProt P28907) | cyclase activity, fluorometric | – | 50 µM, with: NGD+ substrate | relative to: untreated | remaining activity | -1.7 ± 10.3%
CNC(=O)C[C@H](Cc1ccc(C#N)cc1)NC(=O)c1cc(-c2ccc(CN[C@H](C)c3ccc(C)cc3)o2)ccc1Cl | ATPase family AAA domain-containing protein 2, bromodomain (ATAD2, Homo sapiens, UniProt Q6PL18) | binding, TR-FRET competition | – | concentration not given, with: H4K12ac peptide | – | activity | inactive
O=C1CC[C@H](N2Cc3cc(-c4cnn5ccc(NCCN6CCOCC6)nc45)ccc3C2=O)C(=O)N1 | Cereblon/Casein kinase I alpha (CSNK1A1/CRBN, Homo sapiens, UniProt P48729+Q96SW2) | protein level, degrader, luciferase | MOLT-4 | – | – | Dmax | 0%

A few entries again:
SMILES | target | test | system | conditions | scale | quantity | value
C=C1CN(S(=O)(=O)c2ccc(C)cc2)CCCN(Cc2ccccc2)CCCN(S(=O)(=O)c2ccc(C)cc2)C1 | Inactive tyrosine-protein kinase 7 (PTK7, Homo sapiens, UniProt Q13308) | SILAC mass spectrometry | SUP-T1, crude membrane fraction | 10 µM, 17 h, forward labelling | relative to: DMSO over compound | protein level ratio | 2.39
CC[C@H](C)[C@H](NC(=O)[C@H](CCC(=O)O)NC(=O)[C@H](CC(=O)O)NC(=O)c1ccc2c(c1)C(=O)OC21c2ccc(O)cc2Oc2cc(O)ccc21)C(=O)N[C@H](C(=O)N[C@@H](CC(N)=O)C(=O)N[C@@H](CCCCN)C(=O)N[C@H](C(=O)N[C@@H](CC(C)C)C(N)=O)C(C)C)C(C)C | yeast Vps4p GP-linker mutant | fluorescence polarization | – | concentration not given | relative to: wild-type Vps4p | binding change | no effect
